Measurements collected from several papers.
Each line is one published result; not all experiments were run side by side. ± gives the spread as reported.

`CN[C@@H]1C[C@H]2O[C@@](C)([C@@H]1OC)n1c3ccccc3c3c4c(c5c6ccccc6n2c5c31)C(=O)N[C@@H]4O` gave a Cmax of 11800 ng/mL (human patients; intravenous infusion, 24 mg/m^2/24 h, 72 h infusion, cycle 1, mean, added: prednisone).
For `COc1ccc(C[C@@H]2NC(=O)[C@H]([C@@H](C)O)NC(=O)[C@@H]3[C@@H]4CCN3C(=O)[C@@H]3Cc5cn(c6ccc(F)cc56)CCCCCCN(Cc5ccc(cc5)CCNC(=O)[C@]5(C)CCCN5C2=O)C(=O)CCC(=O)N[C@@H](C)C(=O)N[C@H](CNC(=O)CCCCC[N+](C)(C)C)C(=O)N[C@@H](Cc2cccc(c2)CNC(=O)CO4)C(=O)N3)cc1`, the Cmax was 45.3 nM (fasted healthy humans, plasma; oral, 200 mg single dose, with 1800 mg Labrasol, geometric mean).
`CN1CC(=O)N2[C@H](c3ccc4c(c3)OCO4)c3[nH]c4ccccc4c3C[C@@H]2C1=O` gave a Cmax of 475 ng/mL (healthy adult humans, both sexes, plasma; oral, 10/40 mg fixed-dose combination, single dose, fasted, food-effect part).
`CC(C)C[C@H](CN)CC(=O)O` has a Cmax of 3320 ng/mL (human, plasma; oral, 150 mg, median).
The Cmax of `Cc1cnc(C(=O)N[C@H]2CCCCC/C=C\[C@@H]3C[C@@]3(C(=O)NS(=O)(=O)C3CC3)NC(=O)[C@@H]3C[C@@H](Oc4nc5ccccc5c5ccccc45)CN3C2=O)cn1` is reported as 2060 ng/mL (healthy human volunteers, plasma; oral, dose not given, added: omeprazole plus 2D regimen).
`CC[C@@]1(O)C(=O)OCc2c1cc1n(c2=O)Cc2cc3c(CN(C)C)c(O)ccc3nc2-1` has a Cmax of 24.8 ng/mL (human patients, plasma; oral, 8 mg weekly, day 1, geometric mean, alone).
`Oc1ccc2ccc3c4ccccc4cc4ccc1c2c43` has a Cmax of 9.48 ± 6.63 fg BaP equivalents/mL (UPLC-AMS; human, plasma; oral, 100 ng of [14C]-BaP).
`CC(C)c1nc(CN(C)C(=O)N[C@H](C(=O)N[C@@H](Cc2ccccc2)C[C@H](O)[C@H](Cc2ccccc2)NC(=O)OCc2cncs2)C(C)C)cs1` gave a Cmax of 2290 ng/mL (healthy human volunteers, plasma; oral, dose not given, added: digoxin plus 2D regimen).
With `CC[C@H](C)[C@H](NC(=O)[C@H](CC(C)C)NC(=O)[C@H](Cc1c[nH]c2ccccc12)NC(=O)[C@H](CCC(N)=O)NC(=O)[C@@H](NC(=O)[C@H](Cc1ccccc1)NC(=O)[C@H](C)NC(=O)[C@H](CCCCNC(=O)COCCOCCNC(=O)COCCOCCNC(=O)CC[C@H](NC(=O)CCCCCCCCCCCCCCCCCCC(=O)O)C(=O)O)NC(=O)[C@H](CCC(N)=O)NC(=O)[C@H](C)NC(=O)[C@@H](NC(=O)[C@H](CCCCN)NC(=O)[C@H](CC(=O)O)NC(=O)[C@H](CC(C)C)NC(=O)C(C)(C)NC(=O)[C@@H](NC(=O)[C@H](CO)NC(=O)[C@H](Cc1ccc(O)cc1)NC(=O)[C@H](CC(=O)O)NC(=O)[C@H](CO)NC(=O)[C@@H](NC(=O)[C@H](Cc1ccccc1)NC(=O)[C@@H](NC(=O)CNC(=O)[C@H](CCC(=O)O)NC(=O)C(C)(C)NC(=O)[C@@H](N)Cc1ccc(O)cc1)[C@@H](C)O)[C@@H](C)O)[C@@H](C)CC)[C@@H](C)CC)C(C)C)C(=O)N[C@@H](C)C(=O)NCC(=O)NCC(=O)N1CCC[C@H]1C(=O)N[C@@H](CO)C(=O)N[C@@H](CO)C(=O)NCC(=O)N[C@@H](C)C(=O)N1CCC[C@H]1C(=O)N1CCC[C@H]1C(=O)N1CCC[C@H]1C(=O)N[C@@H](CO)C(N)=O` the Cmax was 526 ng/mL (human, moderate hepatic impairment, plasma; subcutaneous, 5 mg single dose, geometric LSM, weight-adjusted).
`CCCNS(=O)(=O)Nc1ncnc(OCCOc2ncc(Br)cn2)c1-c1ccc(Br)cc1` has a Cmax of 241 ng/mL (healthy adult humans, both sexes, plasma; oral, 10/40 mg fixed-dose combination, single dose, fed, high-fat breakfast).
For `CCCCCOc1ccc(-c2cc(-c3ccc(C(=O)N[C@H]4C[C@@H](O)[C@@H](O)NC(=O)[C@@H]5[C@@H](O)[C@@H](C)CN5C(=O)[C@H]([C@H](O)CC(N)=O)NC(=O)[C@H]([C@H](O)[C@@H](O)c5ccc(O)c(OS(=O)(=O)O)c5)NC(=O)[C@@H]5C[C@@H](O)CN5C(=O)[C@H]([C@@H](C)O)NC4=O)cc3)no2)cc1`, the Cmax was 20600 ng/mL (human paediatric patients 6 to sample C years, plasma; intravenous, 4.5 mg/kg once daily, day 7, geometric mean).
`COc1ccsc1CNCC[C@@]1(c2ccccn2)CCOC2(CCCC2)C1` has a Cmax of 34.8 ng/mL (healthy human, normal hepatic function, plasma; intravenous, 1 mg single dose, geometric mean).
With `O[C@H]1CCCN[C@@H]1CCCn1cnc2c(Cl)c(Cl)ccc21` the Cmax was 124 ng/mL (human, plasma; oral, 100 mg single dose, capsule, geometric mean).
With `CC(=O)C[C@H](c1ccccc1)c1c(O)c2ccccc2oc1=O` the Cmax was 269 ng/mL (healthy human volunteers, plasma; dose not given, given alone).
The Cmax of `CC[C@H](C)[C@H](NC(=O)[C@H](CC(C)C)NC(=O)[C@H](Cc1c[nH]c2ccccc12)NC(=O)[C@H](CCC(N)=O)NC(=O)[C@@H](NC(=O)[C@H](Cc1ccccc1)NC(=O)[C@H](C)NC(=O)[C@H](CCCCNC(=O)COCCOCCNC(=O)COCCOCCNC(=O)CC[C@H](NC(=O)CCCCCCCCCCCCCCCCCCC(=O)O)C(=O)O)NC(=O)[C@H](CCC(N)=O)NC(=O)[C@H](C)NC(=O)[C@@H](NC(=O)[C@H](CCCCN)NC(=O)[C@H](CC(=O)O)NC(=O)[C@H](CC(C)C)NC(=O)C(C)(C)NC(=O)[C@@H](NC(=O)[C@H](CO)NC(=O)[C@H](Cc1ccc(O)cc1)NC(=O)[C@H](CC(=O)O)NC(=O)[C@H](CO)NC(=O)[C@@H](NC(=O)[C@H](Cc1ccccc1)NC(=O)[C@@H](NC(=O)CNC(=O)[C@H](CCC(=O)O)NC(=O)C(C)(C)NC(=O)[C@@H](N)Cc1ccc(O)cc1)[C@@H](C)O)[C@@H](C)O)[C@@H](C)CC)[C@@H](C)CC)C(C)C)C(=O)N[C@@H](C)C(=O)NCC(=O)NCC(=O)N1CCC[C@H]1C(=O)N[C@@H](CO)C(=O)N[C@@H](CO)C(=O)NCC(=O)N[C@@H](C)C(=O)N1CCC[C@H]1C(=O)N1CCC[C@H]1C(=O)N1CCC[C@H]1C(=O)N[C@@H](CO)C(N)=O` is reported as 353 ng/mL (human, mild renal impairment, plasma; subcutaneous, 5 mg single dose, eGFR 60-89, geometric mean).
With `Cc1ncc2n1-c1ccc(Cl)cc1C(c1ccccc1F)=NC2` the Cmax was 88 nM (healthy human volunteers, plasma; oral, 5 mg single dose, geometric mean, added: water).
`CCCCCOc1ccc(-c2ccc(-c3ccc(C(=O)N[C@H]4C[C@@H](O)[C@@H](O)NC(=O)[C@@H]5[C@@H](O)[C@@H](C)CN5C(=O)[C@H]([C@@H](C)O)NC(=O)[C@H]([C@H](O)[C@@H](O)c5ccc(O)cc5)NC(=O)[C@@H]5C[C@@H](O)CN5C(=O)[C@H]([C@@H](C)O)NC4=O)cc3)cc2)cc1` has a Cmax of 2900 ng/mL (human, plasma; intravenous, 3 mg/kg loading dose, day 1).
For `CCC(=O)C(CC(C)N(C)C)(c1ccccc1)c1ccccc1` (stereo not drawn), the Cmax was 362 ng/mL (human, plasma; oral, 40 mg, day 1, steady state, dose-normalized, alone).
With `Oc1ccc2cc3ccc4cccc5ccc(c2c1)c3c45` the Cmax was 6.26 ± 3.64 fg BaP equivalents/mL (UPLC-AMS; human, plasma; oral, 250 ng of [14C]-BaP).
For `COC(=O)N[C@H](C(=O)N1CCC[C@H]1C(=O)Nc1ccc([C@@H]2CC[C@@H](c3ccc(NC(=O)[C@@H]4CCCN4C(=O)[C@@H](NC(=O)OC)C(C)C)cc3)N2c2ccc(C(C)(C)C)cc2)cc1)C(C)C`, the Cmax was 121 ng/mL (healthy human volunteers, plasma; oral, dose not given, alone, pravastatin interaction study).
`CCCCCOc1ccc(-c2ccc(-c3ccc(C(=O)N[C@H]4C[C@@H](O)[C@@H](OCC[N+](C)(C)C)NC(=O)[C@@H]5[C@@H](O)[C@@H](C)CN5C(=O)[C@H]([C@@H](C)O)NC(=O)[C@H]([C@H](O)[C@@H](O)c5ccc(O)cc5)NC(=O)[C@@H]5C[C@@H](O)CN5C(=O)[C@H]([C@@H](C)O)NC4=O)cc3)cc2)cc1` has a Cmax of 105 ng/mL (healthy adult humans, plasma; subcutaneous, 10 mg, median).

A few entries again:
With `CC(=O)C[C@H](c1ccccc1)c1c(O)c2ccccc2oc1=O` the Cmax was 269 ng/mL (healthy human volunteers, plasma; dose not given, given alone).
`COc1ccsc1CNCC[C@@]1(c2ccccn2)CCOC2(CCCC2)C1` has a Cmax of 34.8 ng/mL (healthy human, normal hepatic function, plasma; intravenous, 1 mg single dose, geometric mean).
`CC(C)C[C@H](CN)CC(=O)O` has a Cmax of 3320 ng/mL (human, plasma; oral, 150 mg, median).
